Published values pooled from the literature.
A part holds a random share of what one study measured. Substitutions count along the parent as printed.

Study 1 — method: RNA Bind-n-Seq; molecule type: RNA; sample: in vitro; concentration: 365 nM; reference: no-protein control; reading: higher = stronger binding
Target: RNA binding protein fox-1 homolog 2, RRM domain, GST-SBP tag (RBFOX2, Homo sapiens, UniProt O43251-10, residues 100-194)
Notes: natural RNA segment, single round, ends assumed
All sequences stand within: GGGAGUUCUACAGUCCGACGAUC … UGGAAUUCUCGGGUGCCAA
Target sequence (chain): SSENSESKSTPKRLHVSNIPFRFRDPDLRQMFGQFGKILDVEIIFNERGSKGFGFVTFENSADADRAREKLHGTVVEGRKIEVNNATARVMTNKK
Sequence	RBNS enrichment (R)
AAAUGUCCAGGCUGGUGAAGAUCCGCUGAGCAAGAGCCCUGGUGUGGGGAAAGGGAGGUCAGAGUACCAGGAACUGCUGAUGUCUGCUCUAAAGUACUUGAGUGGUGCUA	0.766
UUUGGACACUGGAGUUGAAAGUUACAGGCAAUCUGUUACACUUGGCUCUGAAUCCUAUGAAUCAAGGAAAUAACCCGUUCUCUGGAAGACACUGAAACAGGAGAGAGGGA	0.207
ACUUGUUAAUUUAGUUUUCUCCUUAGAGACUUUGAGACCCUUAAGAGACAAGAUUGAGAAAGAGCCAUGUGGCUUGGCUCUAGAAACGUCAUUAUCAUUAGGACCAUCAG	0.48
UCUACUGACCUGAAUGUGUUGGAUCUUCACGUGUCGUUUUGUUUUGGCUUUAUUGAUGCACGGAUGCUUUUGAACAGUAGAGCGAAAUGCUAGACAUGGAGAACUUGCUC	15.5
UAACCAAAUUCUAGCAUCUCAGAGUACAGUGAAAAGCAGCAGUGUACUCAGUGAUAAAGUUAGCCAGCUCCAGAUAUGCAUAAAGAGUCUAAAGGUUUCUAAGUGUAUCU	0.794
ACAAAGAAAGCUAAGCUGUUGUACAUAUUUGUAGUUGGCUGUGCAUGGUACAAAUUUAUUAAUAUGAAGAAAUGCAAAAUGUAUUGCUUUUGAUAUUUCUCUUCCGAGAU	8.5
GUUCCAUGUCACAAACAGGAAGGUUAGAAACACUAAGGUCUGUGAACAUCACUGCUGCAGCGAGGCAGCUCCUCUGUCUACUCGUUCAAGUGUCUUACUCUACUGGAUGC	0.233
CUGGGCCCAGCCCAGGGUCUGACUAUCCUAGGCGUCUUCUGAGAAGGCUUUUUCAGGGAAAACAAACAAACCGAUUUUAUAAGUCCAAUCAUCCCCGUGACCUCCUCAGC	0.236
CCAGGGUCCCUGCCCACUUCUGUUUUCCUAAUGUUUUUCUCUAUAAAGGGUCAGGCCCGUCAGCAUCACUGAUGGGAAUAAAAGUAUUAAUGCUUUGUGACAGCCUCUGC	0.585
ACAGACUCAGGUUUCUUUGGACCAAAUCCAAAAGAACACAUAGCUGUAACACAGCUGUAGCUGCCUAGAAUGCUCUGUAUACUUUAUAUUAAAAAUGCUCUGCAUUUCUU	0.228
AAACCUCUGUUUCUAUAGAUUUAUUUUUAUACAUGUUUAAUUAUUGAAUCAUAAAAUGGGGACAUAUCAUCAAAUCCAAAGUGGUAACAGUGCUAAAUAAGCAUGUAUGA	0.852
AAUUCACCUAGCAUAGGCUCUUUGAAAUGUCCUCUGUUUGAUAAAAAACAAUCCUGGGUACGUAUGUUGGCUGGAAAACCACAAUGGACCCUGCCACUGCUUCUUGCCCU	0.307

Study 2 — method: protein-binding microarray; molecule type: double-stranded DNA, one strand shown; sample: in vitro; concentration: 250 nM; notes: 60-bp whole probe; added: salmon DNA 0.4 mg/ml; reference: random background probes; reading: higher = stronger binding; all sequences stand within: GCCTAGCAC … GTCTTGATTCGCTTGACGCTGCTG
Target: Interferon regulatory factor 5, full length, phosphomimetic (IRF5, Homo sapiens, UniProt Q13568-2, residues 1-514, K96S/S451D/S453D/S456D/S462D)
Sequence	log fluorescence [z-score]
GATGATTTCAGTATCGAGACGTGCTAG	4.33
TCAGTTTTAAATTCTAAACTGTGCTAG	0.377
TTAGCTATCCTTATCCTTTAGTGCTAG	0.524
GACGGTTTCCTACGGCTGACGTGCTAG	0.188
GACGGTGTCGACTATCGGGACGTGCTA	1.21
TTAGATTTCAGTATCAATTAGTGCTAG	3.88
TTACGTTTCGGACTGGGTTAGTGCTAG	5.78
TTAGGTCTCCTGTTCCTTTAGTGCTAG	-0.23
TCATGGTTCTTGCTTGGTACTGTGCTA	-0.136
TTAGGACTCGGGTTTCGGTTAGTGCTA	7.05
TTAGATTTCAGTTCAGATTAGTGCTAG	2.28
GACGGTTTCTGGACTGGGGACGTGCTA	0.837
GAACATTTCAATTAGAAAAAGTGCTAG	1
TTAGATATCGGGTTGCGATTAGTGCTA	2.59
TCACCACCCACTCTGGCACTGTGCTAG	-0.177
GACGGTCTCCTTATCCGGACGTGCTAG	-0.06
TTAGAACTGGGGCTTCGATTAGTGCTA	0.0936
GACTGTTTCGACTATCGGGACGTGCTA	7.03
GACGGGTTCCTTCTCCTGACGTGCTAG	-0.0886
ACATATATACAGAGATAGATGTGCTAG	0.261
GACGGTATCGGTATCGGTACGTGCTAG	8.52
TTAGGTTTCGACTTTCGCTTAGTGCTA	8.85
GACGGTTTCGGGTAGCGGGACGTGCTA	7.61
GACGAACTGAGTTTCGAGAGGTGCTAG	4.41
TTCCAGCTGGTGACTAGCGAGTGCTAG	-0.0447

Study 3 — method: universal PBM; molecule type: double-stranded DNA, one strand shown; sample: in vitro; concentration: 600 nM; reading: higher = stronger binding
Target: Sal-like protein 4, full length isoform A (SALL4, Homo sapiens, UniProt Q9UJQ4, residues 1-1053)
Sequence of UniProt Q9UJQ4 (whole entry, looked up): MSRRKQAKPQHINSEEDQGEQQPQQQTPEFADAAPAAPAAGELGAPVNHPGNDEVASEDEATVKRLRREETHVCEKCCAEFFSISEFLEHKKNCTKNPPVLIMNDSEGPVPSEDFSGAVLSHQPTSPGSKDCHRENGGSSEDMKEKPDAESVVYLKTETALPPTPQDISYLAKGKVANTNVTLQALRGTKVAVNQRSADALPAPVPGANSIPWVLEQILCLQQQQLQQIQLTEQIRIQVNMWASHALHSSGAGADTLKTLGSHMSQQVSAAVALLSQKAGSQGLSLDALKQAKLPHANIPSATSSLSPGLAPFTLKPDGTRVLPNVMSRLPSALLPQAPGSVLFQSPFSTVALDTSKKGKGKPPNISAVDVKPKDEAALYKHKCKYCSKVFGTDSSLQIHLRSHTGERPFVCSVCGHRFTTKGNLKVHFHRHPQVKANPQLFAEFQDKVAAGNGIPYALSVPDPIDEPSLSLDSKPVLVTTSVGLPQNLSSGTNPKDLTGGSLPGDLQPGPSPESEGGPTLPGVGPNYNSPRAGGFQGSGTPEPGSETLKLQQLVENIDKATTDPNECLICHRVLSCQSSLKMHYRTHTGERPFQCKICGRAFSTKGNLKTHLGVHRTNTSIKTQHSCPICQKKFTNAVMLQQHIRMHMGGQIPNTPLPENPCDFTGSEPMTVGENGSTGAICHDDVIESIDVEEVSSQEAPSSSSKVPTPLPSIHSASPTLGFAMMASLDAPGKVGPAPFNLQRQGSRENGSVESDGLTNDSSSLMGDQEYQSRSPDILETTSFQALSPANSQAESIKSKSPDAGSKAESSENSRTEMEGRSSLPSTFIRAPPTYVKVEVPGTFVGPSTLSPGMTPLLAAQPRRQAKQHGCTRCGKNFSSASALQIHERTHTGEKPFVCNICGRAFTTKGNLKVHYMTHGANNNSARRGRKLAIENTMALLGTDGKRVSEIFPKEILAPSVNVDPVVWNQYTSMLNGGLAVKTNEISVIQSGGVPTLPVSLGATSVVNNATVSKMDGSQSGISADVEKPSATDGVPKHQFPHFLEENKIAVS
Notes: 8-mer, flanks averaged, mean of replicates
Sequence	E-score
AAGAATCA	0.229
AGTTCTTA	0.205
TGAAGAAA	0.176
CGGCTTGC	-0.224
CGAGGCAC	-0.251
GAAGAAAC	-0.0527
AAATAGAC	0.137
CGCCGGGA	-0.369
CAGGTAGG	-0.0666
TTAGTGAA	0.179
AACACGCG	-0.129
CTGCACAA	0.00681
ATTACTTA	0.303
GTCAACGA	0.00793
CAGCCTGC	-0.232
AGGGGAAG	-0.256
GACGACCC	-0.323
AAGACTCC	-0.158
ACAGCCCA	-0.17
ATACGCAC	0.132
GGTATAGA	0.145
AGCATATA	0.286
GGCATCAA	-0.144

Study 4 — target: CCNF, cyclin fold, Cln2 fusion (human); method: yeast growth competition, sequencing; sample: yeast; notes: strong parent motif; reference: not given; reading: higher = stronger binding
Parent: ITGB3BP docking peptide (human); MPVKRSLKLDGLL
Substitution	normalised enrichment score
MPVKRSLKLDGAL [L12A]	4.05
MPVKASLKLDGLL [R5A]	0.501
MPVKRSAKLDGLL [L7A]	1.58
MPVKKSLKLDGLL [R5K]	0.879
MPVKKSLKFDGLL [R5K L9F]	4.35
MPVKRALKLDGLL [S6A]	6.04
MPVARSLKLDGLL [K4A]	5.09
MPVKRSLKLDGLA [L13A]	5.42
MPVKRSLKLDALL [G11A]	4.74
MPVKASAKLDGLL [R5A L7A]	0.255

Study 5 — method: protein binding microarray; molecule type: double-stranded DNA, one strand shown; sample: in vitro; concentration: not given; reference: not given; reading: higher = stronger binding
Target: Histone acetyltransferase KAT6A, winged helix 1, GST fusion (KAT6A, Homo sapiens, UniProt Q92794, residues 1-85)
Notes: 8-mer, flanks averaged, mean of 2 arrays, mostly near background
Construct (chain): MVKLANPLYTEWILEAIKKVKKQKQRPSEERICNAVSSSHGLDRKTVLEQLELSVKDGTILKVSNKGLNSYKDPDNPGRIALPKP
Sequence	E-score
AACTCAGC	0.0691
ATTTATGC	-0.14
GGCACTCA	-0.0357
GCTTTGCC	-0.0801
CTGGTGCC	-0.046
ACCCTGAT	-0.169
ATTTACAA	-0.148
CGAGCGGA	0.223
GACCTGTA	-0.00799
CTCATGCA	-0.274
TATTGGAA	-0.166
ACAGGCTA	-0.21
CAATTAAA	-0.154
AAGTTCAC	-0.186
AGGTTAAC	0.103
AACCGGTT	0.133
AGTGCATC	-0.0581
GATGTCAA	-0.0035
CGAGAACA	0.0306
GATCGCGC	0.363
ACTTAGAT	-0.197
AGGGTTAC	0.0742
GCTGGTCC	0.0499
GCTTCCAC	0.0962
AGTCTGCA	-0.149

Some of these lines once more (study 5):
Sequence	E-score
CGAGCGGA	0.223
CTCATGCA	-0.274
AAGTTCAC	-0.186
ACTTAGAT	-0.197
GCTTTGCC	-0.0801
GCTTCCAC	0.0962
GACCTGTA	-0.00799
